Measurements pooled from the literature.
Each numbered part is a random draw from the data of one study; scales do not carry over between parts. Substitutions count along the parent as printed.

Block 1 — method: RNA Bind-n-Seq; form: RNA; matrix: in vitro; tested at: 365 nM; baseline: no-protein control; direction: higher = stronger binding
Target: RNA binding protein fox-1 homolog 2, RRM domain, GST-SBP tag (RBFOX2, Homo sapiens, UniProt O43251-10, residues 100-194)
Notes: natural RNA segment, single round, ends assumed
Constant ends, left off below: GGGAGUUCUACAGUCCGACGAUC … UGGAAUUCUCGGGUGCCAA
Construct (chain): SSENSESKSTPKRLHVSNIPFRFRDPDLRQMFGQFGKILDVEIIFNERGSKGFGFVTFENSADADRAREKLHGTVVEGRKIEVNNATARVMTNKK
Oligonucleotide	RBNS enrichment (R)
CCUCCUGAGCCUGCUGGAUGAGACUCCUGCCUGGACCCCCUGCAGGGCAACAGCUGCUGCUGCUUUUGAACAGAAUGGUAGACAGCAUUUACCCUCAGCCACUUCCUCUG	0.256
CAAGUCCCUUCCACCUAUGAGCCUGUAAAAUCAAAAGCAAGCUAGUUACUUCCUAGAUACCAACAGGGGUACAGGUAUUGAUUAAAGACGGCUGUUCCAAAUGGGAGAAA	0.442
GCCGGGCCGACGCCUCCGAGGUGCCCAGGGAGGCUGAGUGAGGCCACGCAGCCGCCUGCCCGGGAGAACCCUGCCUGAAGCUCUGGAAACUUGUGGGUGGGGCCCAGGGA	0.277
UCUGGGGAAGGCCUUGCCUCUAGGAUGGGCAAGGUUGACUAGGGAUAGUCCCAAAGCAUGACCACAAAGUAGAGAGCACGUGGUUAGAAACCACUUCAUCAGAAUGUGUG	3.23
UCAAGGGUAUUCUUUUAAAACUCUGAUUUCAAAGGAUCAGUUGAAUUUAUACUUUAGUUAUGGGUGUUUUGUUACUUUUUUUUUUUUUGUAUCAUGACUCAGUAUGGUUC	1.77
UGCAUAAUACAGAAAGCCUGUGAACACAUGGAAGAUGAUCCUCAUGGUAUGUAUGGUCUGUGUCUUUGGUGAAAUGCAGACUAGAUACCUAAGAACCAGCUUCCCAGUGG	0.274
CUGACACGGCUCUUGUCUAGGACCAGGGCGGCACAUCCCACCAGCGCCAUCUUCCUGGACAGAGUGAGCUGUCAGUCACUCCCCAGGUUUUUUUUGUUUUUGGGGUUUUU	0.642
GGAAAGUCCACUUCAGCCACCAGGAGCAAAGCUGAAAUGGCAUUUGUUUUUCACACCUGGGGUCAGGGGUAUCGAUAGUCACGGCUGCCAUUGGCUUUAGGUCUCUGGAC	0.405
AAGAGAAAUUUUAUCAUCUUUUGAAAGGAAGUCAUGACUGAAGCAAUAAACCUUUUCACUGAUUCAAAACACUGGCUUCUGUGACUGUUUUCUGGGCAGGGCUGGGUCUC	0.52
UCUCUCAAAGAUACCUAGCCAGGCUCCUAACCAUGUUCUUCAACCAUUGAUUUUGUUUGAUUUCUGAUGUGGAAGUGCGGUCAUUCCUGGUUUAACUCACAGCAACUUUU	0.656
GUGCAAAUCAACCUGAUGAUUUUAAUUGGCAGGGGAUAAUGGUAGCUUUCAAAUCAUUGGAAGGGGAAAAGGAUGUCUUAGGAUUAUUUUCUUUCUUGUAGUAGUUGAGA	0.336

Block 2 — target: CCNE1, cyclin fold, Cln2 fusion (human); method: yeast growth competition, sequencing; matrix: yeast; notes: weak parent motif; baseline: not given; direction: higher = stronger binding
Starting sequence: CDC6 docking peptide (human); TLKGRRLVFDNQL
Substitution	normalised enrichment score
TLKGRRLVFDNIL [Q12I]	0.994
TLKGRRLVFDNQP [L13P]	0.985
TLKGRRSVFDNQL [L7S]	-0.242
TLKGRYLVFDNQL [R6Y]	0.599
TLKGRRLVFDNVL [Q12V]	0.697
GLKGRRLVFDNQL [T1G]	0.383
TLKGRRLVFNNQL [D10N]	1.45
TLKGRRLVFDNYL [Q12Y]	1.45
TLKGRREVFDNQL [L7E]	0.0263

Block 3 — method: universal PBM; form: double-stranded DNA, one strand shown; matrix: in vitro; tested at: not given; direction: higher = stronger binding
Target: Sal-like protein 4, full length isoform B (SALL4, Homo sapiens, UniProt Q9UJQ4-2, residues 1-616)
Notes: 8-mer, flanks averaged, mean of replicates
Oligonucleotide	E-score
CACTGTGA	-0.128
GCCATAGA	-0.108
GTAGGACA	0.0278
ACTAAGCC	-0.0814
GCTGATGA	0.0294
AATTTTAC	0.346
CGCCAATC	-0.14
CGCGGAGC	-0.33

Single results of other studies
Molecule	target	test	test system	conditions	scale	quantity	value
PhoQ, residues 284 288 289 292 302 303 NSMLDC	PhoP, residues 12 14 15 18 19 NHFIF (Escherichia coli, UniProt P23836)	Sort-seq, measured: YFP reporter	E. coli	PhoQ-PhoP variant library, together with: 10 µM Mg2+	baseline: high Mg2+ state, higher = stronger signaling	fold induction	22.8

Some of these lines once more (block 1):
Oligonucleotide	RBNS enrichment (R)
UGCAUAAUACAGAAAGCCUGUGAACACAUGGAAGAUGAUCCUCAUGGUAUGUAUGGUCUGUGUCUUUGGUGAAAUGCAGACUAGAUACCUAAGAACCAGCUUCCCAGUGG	0.274
CUGACACGGCUCUUGUCUAGGACCAGGGCGGCACAUCCCACCAGCGCCAUCUUCCUGGACAGAGUGAGCUGUCAGUCACUCCCCAGGUUUUUUUUGUUUUUGGGGUUUUU	0.642
GGAAAGUCCACUUCAGCCACCAGGAGCAAAGCUGAAAUGGCAUUUGUUUUUCACACCUGGGGUCAGGGGUAUCGAUAGUCACGGCUGCCAUUGGCUUUAGGUCUCUGGAC	0.405
AAGAGAAAUUUUAUCAUCUUUUGAAAGGAAGUCAUGACUGAAGCAAUAAACCUUUUCACUGAUUCAAAACACUGGCUUCUGUGACUGUUUUCUGGGCAGGGCUGGGUCUC	0.52
